Measurements gathered from unrelated publications.
Protocols differ between the studies behind these lines. ± marks the error that the study gave.
Target: Cytochrome P450 1A2 (CYP1A2, Homo sapiens, UniProt P05177)
Chain of UniProt P05177 (whole entry, looked up): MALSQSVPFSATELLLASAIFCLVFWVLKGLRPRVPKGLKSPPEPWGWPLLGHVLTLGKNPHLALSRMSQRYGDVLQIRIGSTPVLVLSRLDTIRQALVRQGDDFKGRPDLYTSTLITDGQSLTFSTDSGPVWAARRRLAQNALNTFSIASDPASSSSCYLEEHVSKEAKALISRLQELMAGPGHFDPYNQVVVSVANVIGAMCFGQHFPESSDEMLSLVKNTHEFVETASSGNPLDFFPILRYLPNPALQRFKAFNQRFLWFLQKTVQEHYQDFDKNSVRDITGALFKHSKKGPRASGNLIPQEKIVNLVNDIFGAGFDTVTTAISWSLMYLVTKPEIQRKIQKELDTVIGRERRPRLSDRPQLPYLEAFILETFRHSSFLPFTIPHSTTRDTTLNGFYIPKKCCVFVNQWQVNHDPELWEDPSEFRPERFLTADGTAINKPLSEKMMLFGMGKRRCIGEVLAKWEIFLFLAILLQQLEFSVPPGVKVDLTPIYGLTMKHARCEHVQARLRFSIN

Cc1cc(OC2COC2)cc(C(=O)Nc2ccc(F)cn2)n1
IC50 (inhibitor): 5.8 µM

CCOc1cc(-c2nncn2C)ccc1Nc1ncc2cc(C)nc(NCC(C)(C)C)c2n1
IC50 (enzyme activity, inhibitor): 10 to 50 µM

O=c1c(O)c(-c2ccccc2)oc2ccc(O)cc12
IC50 (enzyme activity, inhibitor, LC-MS/MS, measured: acetaminophen; human liver microsomes; 30 min, pH 7.4, with: phenacetin): 0.81 ± 0.11 µM

Cc1cc(O[C@@H]2CCOC2)cc(C(=O)Nc2ccc(F)cn2)n1
IC50 (inhibitor): > 30 µM

COc1ccc2oc(-c3ccccc3)c(O)c(=O)c2c1
IC50 (enzyme activity, inhibitor, LC-MS/MS, measured: acetaminophen; human liver microsomes; 30 min, pH 7.4, with: phenacetin): 2.92 ± 0.36 µM

CC(C)=CCc1c(O)cc(O)c2c1O[C@H](c1ccc(O)cc1)CC2=O
IC50 (inhibitor; pH 7.4): 1.1 ± 0.2 µM

COc1ccc(Cc2nc(NC(=O)C34CC5CC(CC(C5)C3)C4)n(C)c2Cc2ccc(OC)c(OC)c2)cc1
IC50: > 200 µM

Cc1nc(-c2cnc(NC(C)C)n(C)c2=O)ccc1Oc1ccnc(-c2cnn(C)c2)c1
IC50 (metabolism-dependent inhibition, inhibitor; 30 min preincubation with NADPH): > 100 µM

COc1c(-c2ccccc2)oc2ccccc2c1=O
IC50 (enzyme activity, inhibitor, LC-MS/MS, measured: acetaminophen; human liver microsomes; 30 min, pH 7.4, with: phenacetin): 1.02 ± 0.04 µM

N#Cc1ccc(Nc2nc(N)cc(Oc3c(F)cc(-c4ccc(C#N)cc4)cc3F)n2)cc1
IC50 (human liver microsomes; with: phenacetin 20 µM): > 50 µM
